Measurements gathered from unrelated publications.
Protocols differ between the studies behind these lines. Several values in a cell are separate wells, animals, samples, runs or records. ± marks the error that the study gave.
UniProt Q13283, sequence (whole entry, looked up): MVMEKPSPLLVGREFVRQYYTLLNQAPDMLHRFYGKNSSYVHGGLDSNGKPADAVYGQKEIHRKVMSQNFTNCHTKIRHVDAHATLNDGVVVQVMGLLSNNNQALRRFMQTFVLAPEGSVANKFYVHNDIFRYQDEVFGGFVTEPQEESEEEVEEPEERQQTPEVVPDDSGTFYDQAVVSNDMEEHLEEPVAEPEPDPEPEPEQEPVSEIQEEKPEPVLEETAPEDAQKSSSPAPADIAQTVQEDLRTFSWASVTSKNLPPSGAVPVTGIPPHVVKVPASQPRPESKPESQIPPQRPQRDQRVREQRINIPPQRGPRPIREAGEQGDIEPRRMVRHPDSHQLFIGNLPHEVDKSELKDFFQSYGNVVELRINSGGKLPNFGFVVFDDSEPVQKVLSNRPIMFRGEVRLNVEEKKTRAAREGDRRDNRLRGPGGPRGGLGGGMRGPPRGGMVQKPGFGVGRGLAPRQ
UniProt Q6DWJ6, sequence (whole entry, looked up): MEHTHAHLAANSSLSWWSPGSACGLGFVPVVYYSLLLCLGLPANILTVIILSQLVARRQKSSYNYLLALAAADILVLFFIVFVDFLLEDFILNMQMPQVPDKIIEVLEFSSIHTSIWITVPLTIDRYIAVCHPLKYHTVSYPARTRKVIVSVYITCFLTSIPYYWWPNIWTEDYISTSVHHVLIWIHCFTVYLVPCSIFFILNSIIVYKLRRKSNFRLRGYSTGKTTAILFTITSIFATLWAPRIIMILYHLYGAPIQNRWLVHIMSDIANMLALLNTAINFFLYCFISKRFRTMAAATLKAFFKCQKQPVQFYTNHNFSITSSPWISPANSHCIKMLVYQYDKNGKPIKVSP

The Kd of `PRPRPRPRPRPRPRPRPRPRPRPRPRPRPRPRPRPRPRPRPRPRPRPRPRPRPRPRPRPR (poly-PR 30 repeats)` is reported as 0.0298 µM (G3BP1 (UniProt Q13283); BLI; peptide).
`NLFDDNIDIFADLT (WASHC2A 1261-1274 (Homo sapiens))` has a Kd of 33.5 ± 1.48 µM (SNX27 K496D (Homo sapiens); ITC; peptide).
The globulin of `HVLVMSATRR` is reported as 1.6 g/dL and 1.7 g/dL (peptide, C57BL/6J mice, male, serum; subcutaneous osmotic pump, 3 mg/kg/day peptide basis, 8 weeks).
`DLDSDDEY (TELO2 488-494 (Homo sapiens); pS491)` has a Kd of 90 µM (PIH1D1 51-180 K113A (Homo sapiens, UniProt Q9NWS0); ITC; peptide).
`ACAWCLRGTICCSG (MP5.4.3; Cys2-Cys12, Cys5-Cys11 disulfides)` gave a Ki of 0.0004 µM (CTRB1 α-chymotrypsin (Bos taurus, UniProt P00766); steady-state kinetics; peptide).
With `GRGRGRGRGRGRGRGRGRGRGRGRGRGRGRGRGRGRGRGRGRGRGRGRGRGRGRGRGRGR (poly-GR 30 repeats)` the Kd was 0.00057 µM (G3BP1 143-226 (Homo sapiens, UniProt Q13283); BLI; peptide).
`DFMTWF (designed peptide)` has a Ki of 0.363 ± 0.152 µM (NHERF2 142-254 (Homo sapiens, UniProt Q15599-1); competition with labeled peptide, fluorescence polarisation; peptide).
`aspterric acid` gave an inhibition of 99.6% (hypocotyl length; Arabidopsis thaliana Col-0 seeds; 100 µg/mL).
`YGGFLRKYPK (α-neoendorphin mature peptide (UniProt P01213))` gave a Ki of 0.678 µM (GPR139 (Homo sapiens, UniProt Q6DWJ6); radioligand binding; peptide).
`nonaarginine` gave a Kd of 2.78 ± 0.3 µM (PorA peptide pore; peptide binding, planar bilayer single-channel recording; pH 7.4, -30 mV, cis side, 150 mM KCl).
`SSASSEDYIIILPECFDTSRPLGDS (NBR1 725-749 (UniProt Q14596); FITC label)` has a Kd of 1.79 ± 0.17 µM (MAP1LC3A (Homo sapiens, UniProt Q9H492); FP; peptide).
The fold change of `insulin human` is reported as 1.07 (item: HDAC2 mRNA; uninfected mouse, brain; i.p., dose not given; relative to: PBS).
With `Histone H3.1 fragment (Homo sapiens) (sequence not shown)` the Kd was 8.71 ± 0.94 µM (WDR5 fragment (Homo sapiens); ITC).
